{"data": "Published values gathered from unrelated publications", "note": "Lines come from different studies, so protocols differ. Numbers after ± are the reported error."}
{"Structure (SMILES)": "Cc1cc(=O)[nH]c2c1NC(=O)c1cccnc1N2C1CC1", "system": "olive baboon (Papio anubis), non-pregnant, serum", "setting": "oral, 10 mg/kg of nevirapine, solution, single dose", "quantity": "AUC(0-8 h)", "result": "13.2 ± 9.62 ng·h/mL"}
{"Structure (SMILES)": "O=C(/C=C/c1cc(F)cc(F)c1)c1ccc[nH]1", "system": "zebrafish embryo (wild type)", "setting": "up to 72 hpf, exposed from 5 hpf", "quantity": "LC50", "result": "12.1 µM"}
{"Structure (SMILES)": "CCOCN(C(=O)CCl)c1c(C)cccc1CC", "assay": "LC-MS/MS", "system": "herbicide solution", "setting": "2 h, 4 °C, with: 365 nm UV exposure", "quantity": "remaining amount", "result": "84.1 ± 23.3%"}
{"Structure (SMILES)": "C[C@H]1CNCCc2ccc(Cl)cc21", "system": "male Sprague-Dawley rat, plasma", "setting": "subcutaneous, pimavanserin 0.5 + lorcaserin 0.5 mg/kg, pimavanserin 15 min earlier", "quantity": "AUC(0-t)", "result": "26.5 ± 1.8 ng·h/mL"}
{"Structure (SMILES)": "O[C@H]1CCCN[C@@H]1CCCn1cnc2c(Cl)c(Cl)ccc21", "system": "human, plasma", "setting": "oral, 500 mg, single dose, healthy volunteers", "quantity": "Vd/F", "result": "2410 L"}
{"Structure (SMILES)": "c1cc2ccc3cccc4ccc(c1)c2c34", "assay": "HPLC-fluorescence", "system": "Wistar rat, male, testes", "setting": "oral, 4 mg/kg, 24 h", "quantity": "tissue concentration", "result": "12.6 ± 3.3 ng/g"}
{"Structure (SMILES)": "CN[C@@](C)(C[18F])C(=O)O", "system": "mouse, blood", "setting": "30 min, tumour-bearing", "quantity": "tracer uptake", "result": "1.7 %ID/g"}
{"Structure (SMILES)": "CNC(=O)c1ccc(-c2cnn3ccc(C(=O)N(C)c4ccc(Cl)c(C(=O)OC)c4)cc23)cc1", "system": "Wistar rats, both sexes, plasma", "setting": "oral, 50 mg/kg/day, day 14", "quantity": "Tmax", "result": "0.5 h"}
{"Structure (SMILES)": "Cn1nccc1Nc1nc(NCC(F)(F)F)c2nc[nH]c2n1", "system": "NMRI mouse, female, uninfected, blood", "setting": "intraperitoneal, 30 mg/kg, day 1, with: ABT pretreatment", "quantity": "Tmax", "result": "0.5 to 2 h"}
{"Structure (SMILES)": "O=C(CC(=O)c1ccccc1)c1ccccc1", "system": "Sprague-Dawley rat, male, plasma", "setting": "oral, 10 mg/kg, regular emulsion", "quantity": "absolute bioavailability", "result": "13.6 ± 2.3%"}
{"Structure (SMILES)": "[123I]c1cncc(OC[C@@H]2CCN2)c1", "assay": "SPECT", "system": "human, thalamus", "setting": "intravenous bolus, 7.35 mCi", "how to read": "relative to: plasma", "quantity": "tissue/plasma ratio", "result": 60.9}
{"Structure (SMILES)": "CCCCCOc1ccc(-c2ccc(-c3ccc(C(=O)N[C@H]4C[C@@H](O)[C@@H](O)NC(=O)[C@@H]5[C@@H](O)[C@@H](C)CN5C(=O)[C@H]([C@@H](C)O)NC(=O)[C@H]([C@H](O)[C@@H](O)c5ccc(O)cc5)NC(=O)[C@@H]5C[C@@H](O)CN5C(=O)[C@H]([C@@H](C)O)NC4=O)cc3)cc2)cc1", "assay": "population PK model", "system": "human patients", "setting": "intravenous, typical patient of sample D kg", "quantity": "clearance", "result": "19.3 mL/min"}
{"Structure (SMILES)": "COc1ccc(C[C@@H]2NC(=O)[C@H]([C@@H](C)O)NC(=O)[C@@H]3[C@@H]4CCN3C(=O)[C@@H]3Cc5cn(c6ccc(F)cc56)CCCCCCN(Cc5ccc(cc5)CCNC(=O)[C@]5(C)CCCN5C2=O)C(=O)CCC(=O)N[C@@H](C)C(=O)N[C@H](CNC(=O)CCCCC[N+](C)(C)C)C(=O)N[C@@H](Cc2cccc(c2)CNC(=O)CO4)C(=O)N3)cc1", "system": "fasted healthy humans, plasma", "setting": "oral, 10 mg single dose, with 1800 mg Labrasol, median", "quantity": "Tmax", "result": "1.5 h"}
{"note": "For quick reference, copied from above:"}
{"Structure (SMILES)": "O=C(CC(=O)c1ccccc1)c1ccccc1", "system": "Sprague-Dawley rat, male, plasma", "setting": "oral, 10 mg/kg, regular emulsion", "quantity": "absolute bioavailability", "result": "13.6 ± 2.3%"}
{"Structure (SMILES)": "CN[C@@](C)(C[18F])C(=O)O", "system": "mouse, blood", "setting": "30 min, tumour-bearing", "quantity": "tracer uptake", "result": "1.7 %ID/g"}
